Assay results from different studies.
Parts stem from different laboratories: compare values within a part only. Several values in a cell are separate wells, animals, samples, runs or records.

Set 1
Cell line: mouse MPNST tumor cells
Method: high-content immunofluorescence imaging
Item: nuclear SOX9
Tested at: 10 µM
Time: 12 h
Notes: mean of 2 replicates
Reference: DMSO control
Reading: higher = more nuclear SOX9
Cc1cc(CN2CCN(c3c(Br)cnc4nc(-c5ccc(N6CCN(C)CC6)cc5)[nH]c34)CC2)no1 — result for “nuclear SOX9 intensity”: 166 % of DMSO.
NCCCCCCNS(=O)(=O)c1cccc2c(Cl)cccc12 — result for “nuclear SOX9 intensity”: 100 % of DMSO.
C[C@@H](O)[C@H]1C(=O)N2C(C(=O)O)=C(SCCNC=N)C[C@H]12: “nuclear SOX9 intensity” 87.9 % of DMSO.
O=c1oc2c(C3OCCCO3)c(O)ccc2c2c1CNCC2: “nuclear SOX9 intensity” 101 % of DMSO.
N=C(NCCCCCCNC(=N)NC(=N)Nc1ccc(Cl)cc1)NC(=N)Nc1ccc(Cl)cc1: “nuclear SOX9 intensity” 145 % of DMSO.
Under “nuclear SOX9 intensity”, COc1ccc2[nH]c([S+]([O-])Cc3ncc(C)c(OC)c3C)nc2n1 (stereo not drawn) is recorded as 112 % of DMSO.
For O=C(NCC(=O)N1CCCC1)Nc1ccc2cnccc2c1, “nuclear SOX9 intensity” read 99.7 % of DMSO and 85.1 % of DMSO.
For Cc1cn([C@H]2C[C@H](N=[N+]=[N-])[C@@H](CO)O2)c(=O)[nH]c1=O, “nuclear SOX9 intensity” read 133 % of DMSO.
COc1cc(C(=O)NS(=O)(=O)c2ccccc2C)ccc1Cc1cn(C)c2ccc(NC(=O)OC3CCCC3)cc12 — result for “nuclear SOX9 intensity”: 94.3 % of DMSO and 93.8 % of DMSO.
For N=C(N)Nc1ccc(C(=O)Oc2ccc3cc(C(=N)N)ccc3c2)cc1, “nuclear SOX9 intensity” read 95.5 % of DMSO.
For Cc1cc(C)c(S(=O)(=O)N(Cc2ccc(-c3cccc(S(C)(=O)=O)c3)cc2)Cc2ccc(C(F)(F)F)o2)c(C)c1, “nuclear SOX9 intensity” read 88.7 % of DMSO.
Under “nuclear SOX9 intensity”, CCOc1ccc(Nc2nc(-c3c(C)nc4ccccn34)cs2)cc1 is recorded as 270 % of DMSO.

Set 2
Organism: Sarcocystis neurona
Read-out: parasite growth
Tested at: 10 µM
The inhibition of CCCNCC(O)COc1ccccc1C(=O)CCc1ccccc1 (stereo not drawn) is reported as 65.8%.
CC1=C(/C=C/C(C)=C/C=C/C(C)=C\C(=O)O)C(C)(C)CCC1 gave an inhibition of -31.8%.
Cc1c(OCC(F)(F)F)ccnc1C[S+]([O-])c1nc2ccccc2[nH]1 (stereo not drawn) gave an inhibition of -120%.
For CC(C)C(=O)Nc1ccc([N+](=O)[O-])c(C(F)(F)F)c1, the inhibition was -28.6%.
N[C@@H](C(=O)N[C@@H]1C(=O)N2C(C(=O)O)=C(Cl)CS[C@H]12)c1ccccc1 has an inhibition of -19.9%.
O=C1Nc2ccc(Cl)cc2[C@@](C#CC2CC2)(C(F)(F)F)O1 gave an inhibition of 19.7%.
For CC(C)(S)[C@@H](N)C(=O)O, the inhibition was -23.6%.
The inhibition of CN(C)CCCN1c2ccccc2Sc2ccc(Cl)cc21 is reported as 24.3%.
C[C@H](CCC(=O)O)[C@H]1CC[C@H]2[C@@H]3[C@@H](O)C[C@@H]4C[C@H](O)CC[C@]4(C)[C@H]3CC[C@]12C has an inhibition of -26.3%.

Set 3
Species: mouse
Medium: microsomes or S9
Tested at: 2 µM
Time: 0.5 h
With O=C(O)C1CC=CCC1C(=O)/N=c1\[nH]ccs1 (stereo not drawn) the remaining compound was 86.8%.
N#Cc1ccc(-c2ccccc2CCOc2ncccn2)cc1 gave a remaining compound of 2.46%.
With CCc1cnc(C)nc1NCC1CC(C(C)C)=NO1 (stereo not drawn) the remaining compound was 93.8%.
The remaining compound of CC(C)(C)Nc1oc(-c2ccc(S(=O)(=O)N3CCOCC3)o2)nc1C#N is reported as 95.6%.
Cc1cc(NC(C)c2cc(C)n(C)n2)cc(C)c1Cl (stereo not drawn) gave a remaining compound of 9.27%.
The remaining compound of C=CCc1c(C)nc2c(-c3ccccc3)cnn2c1NCCCn1ccnc1 is reported as 63.3%.
Cc1ccc(S(=O)(=O)N2c3c(c4ccccc4n3Cc3ccccc3)CC=CC2c2ccccc2)cc1 (stereo not drawn) gave a remaining compound of 34.7%.
With Cn1cc(S(=O)(=O)Nc2nc3ccccc3nc2Nc2cc(Cl)ccc2O)cn1 the remaining compound was 49.7%.
Cc1ccccc1-c1cccc2nc(-c3ccccc3)nn12 has a remaining compound of 0.209%.
CC(CO)Oc1cc(-n2nc3c(c2Cl)CCCC3)c(F)cc1Cl (stereo not drawn) has a remaining compound of 0.155%.

Mixed results
CN(C)C(=O)N1CC[C@H](N=C2Nc3cc(F)ccc3N(CC(F)F)c3ccc(Cl)cc32)C1 has a viability of 141% (sample I colorectal tumour organoid; 0.1 µM; reference: DMSO).
Cn1cncc1[C@@](O)(COc1ccc(C#N)cc1-c1ccc(OC(F)(F)F)cc1)c1ccc(C#N)cc1 has an apoptotic cells of 21.6% and 16.7% (HEK293T; high-content imaging; 10 µM, 0 h).

Some of these lines once more (set 3):
The remaining compound of CC(C)(C)Nc1oc(-c2ccc(S(=O)(=O)N3CCOCC3)o2)nc1C#N is reported as 95.6%.
Cc1cc(NC(C)c2cc(C)n(C)n2)cc(C)c1Cl (stereo not drawn) gave a remaining compound of 9.27%.
